Assay results pooled from the literature.
Protocols differ between the studies behind these lines. “And” joins repeats or separate records; there may be more than shown. ± gives the spread as reported.
cyp121: Mycocyclosin synthase (cyp121, Mycobacterium tuberculosis, UniProt P9WPP7)
lasR: Transcriptional activator protein LasR (lasR, Pseudomonas aeruginosa, UniProt P25084)

Protein sequences, listed by entry. Tags and fused reporters are not part of them. Residues count along the entry.
UniProt P9WPP7, whole entry: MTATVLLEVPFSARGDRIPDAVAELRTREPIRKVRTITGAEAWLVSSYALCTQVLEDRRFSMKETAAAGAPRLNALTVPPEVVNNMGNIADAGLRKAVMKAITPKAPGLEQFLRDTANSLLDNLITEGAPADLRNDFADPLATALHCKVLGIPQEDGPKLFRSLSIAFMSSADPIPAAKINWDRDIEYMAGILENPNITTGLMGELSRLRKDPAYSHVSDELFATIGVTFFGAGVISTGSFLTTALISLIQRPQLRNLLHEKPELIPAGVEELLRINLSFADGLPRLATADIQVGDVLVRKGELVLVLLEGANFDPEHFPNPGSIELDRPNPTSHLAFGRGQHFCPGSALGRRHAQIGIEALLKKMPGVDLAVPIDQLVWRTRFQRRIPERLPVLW
UniProt P25084, whole entry: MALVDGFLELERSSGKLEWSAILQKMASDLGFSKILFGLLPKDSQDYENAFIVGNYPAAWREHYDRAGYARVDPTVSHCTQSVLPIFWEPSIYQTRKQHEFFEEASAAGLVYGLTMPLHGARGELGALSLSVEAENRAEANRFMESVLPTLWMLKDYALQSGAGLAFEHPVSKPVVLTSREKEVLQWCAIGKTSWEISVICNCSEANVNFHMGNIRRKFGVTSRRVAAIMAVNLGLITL
UniProt P23975, whole entry: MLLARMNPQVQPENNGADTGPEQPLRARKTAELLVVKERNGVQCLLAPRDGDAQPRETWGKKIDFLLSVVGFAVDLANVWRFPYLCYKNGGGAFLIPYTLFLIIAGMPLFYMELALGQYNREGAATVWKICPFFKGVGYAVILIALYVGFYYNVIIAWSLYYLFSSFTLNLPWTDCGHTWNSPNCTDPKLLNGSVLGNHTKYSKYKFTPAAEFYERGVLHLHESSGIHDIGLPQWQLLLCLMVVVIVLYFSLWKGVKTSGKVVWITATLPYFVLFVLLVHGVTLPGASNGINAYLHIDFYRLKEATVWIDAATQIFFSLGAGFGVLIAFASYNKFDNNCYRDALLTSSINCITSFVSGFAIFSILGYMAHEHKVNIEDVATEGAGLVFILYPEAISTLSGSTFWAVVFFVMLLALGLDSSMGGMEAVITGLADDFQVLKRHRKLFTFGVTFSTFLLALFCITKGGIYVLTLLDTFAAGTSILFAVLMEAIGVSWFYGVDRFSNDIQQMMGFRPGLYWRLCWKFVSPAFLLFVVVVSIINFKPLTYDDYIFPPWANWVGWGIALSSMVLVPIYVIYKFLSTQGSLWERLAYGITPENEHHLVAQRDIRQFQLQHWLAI
UniProt P35372, whole entry: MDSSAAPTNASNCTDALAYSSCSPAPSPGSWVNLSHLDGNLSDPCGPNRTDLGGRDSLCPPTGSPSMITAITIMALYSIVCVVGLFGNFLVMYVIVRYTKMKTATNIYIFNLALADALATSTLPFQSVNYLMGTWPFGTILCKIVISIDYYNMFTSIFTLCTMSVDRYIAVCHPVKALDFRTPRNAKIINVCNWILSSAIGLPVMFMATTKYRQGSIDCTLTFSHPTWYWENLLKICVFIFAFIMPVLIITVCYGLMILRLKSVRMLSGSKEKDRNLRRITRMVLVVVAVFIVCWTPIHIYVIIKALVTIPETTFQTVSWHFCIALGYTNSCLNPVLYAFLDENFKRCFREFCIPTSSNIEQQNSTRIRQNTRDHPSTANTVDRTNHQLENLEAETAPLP
UniProt Q8E0N2, whole entry: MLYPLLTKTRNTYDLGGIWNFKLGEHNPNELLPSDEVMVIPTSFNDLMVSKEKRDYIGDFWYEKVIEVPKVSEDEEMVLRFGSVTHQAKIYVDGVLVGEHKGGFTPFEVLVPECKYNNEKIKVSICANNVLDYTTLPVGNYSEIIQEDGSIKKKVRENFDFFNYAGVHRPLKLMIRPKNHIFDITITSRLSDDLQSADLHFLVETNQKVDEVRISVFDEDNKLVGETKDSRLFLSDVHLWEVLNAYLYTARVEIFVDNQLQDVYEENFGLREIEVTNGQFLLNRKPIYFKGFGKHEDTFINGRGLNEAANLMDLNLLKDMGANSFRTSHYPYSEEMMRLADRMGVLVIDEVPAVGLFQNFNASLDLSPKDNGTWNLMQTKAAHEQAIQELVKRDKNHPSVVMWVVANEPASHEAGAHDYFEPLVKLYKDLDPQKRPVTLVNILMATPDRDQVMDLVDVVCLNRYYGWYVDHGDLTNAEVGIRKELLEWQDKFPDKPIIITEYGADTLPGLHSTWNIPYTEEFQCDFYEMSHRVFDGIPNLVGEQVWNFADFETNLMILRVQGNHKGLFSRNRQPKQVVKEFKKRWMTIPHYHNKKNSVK
UniProt P30291, whole entry: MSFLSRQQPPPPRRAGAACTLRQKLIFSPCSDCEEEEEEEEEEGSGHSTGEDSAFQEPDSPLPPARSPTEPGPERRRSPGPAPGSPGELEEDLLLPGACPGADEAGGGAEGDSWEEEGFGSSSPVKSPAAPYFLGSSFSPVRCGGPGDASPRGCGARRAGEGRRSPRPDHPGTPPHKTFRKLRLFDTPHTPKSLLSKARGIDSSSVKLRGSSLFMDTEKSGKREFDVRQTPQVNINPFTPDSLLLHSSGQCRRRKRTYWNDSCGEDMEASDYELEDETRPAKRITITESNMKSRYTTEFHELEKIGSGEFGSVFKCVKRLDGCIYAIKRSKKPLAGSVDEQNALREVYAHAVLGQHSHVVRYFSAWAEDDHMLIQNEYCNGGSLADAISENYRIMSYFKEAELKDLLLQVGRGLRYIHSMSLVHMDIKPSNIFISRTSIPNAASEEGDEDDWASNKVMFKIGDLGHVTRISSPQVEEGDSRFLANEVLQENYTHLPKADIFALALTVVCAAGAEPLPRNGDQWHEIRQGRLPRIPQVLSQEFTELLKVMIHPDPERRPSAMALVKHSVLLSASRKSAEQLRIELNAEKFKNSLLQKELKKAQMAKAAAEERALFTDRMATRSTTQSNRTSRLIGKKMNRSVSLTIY
UniProt Q96SW2, whole entry: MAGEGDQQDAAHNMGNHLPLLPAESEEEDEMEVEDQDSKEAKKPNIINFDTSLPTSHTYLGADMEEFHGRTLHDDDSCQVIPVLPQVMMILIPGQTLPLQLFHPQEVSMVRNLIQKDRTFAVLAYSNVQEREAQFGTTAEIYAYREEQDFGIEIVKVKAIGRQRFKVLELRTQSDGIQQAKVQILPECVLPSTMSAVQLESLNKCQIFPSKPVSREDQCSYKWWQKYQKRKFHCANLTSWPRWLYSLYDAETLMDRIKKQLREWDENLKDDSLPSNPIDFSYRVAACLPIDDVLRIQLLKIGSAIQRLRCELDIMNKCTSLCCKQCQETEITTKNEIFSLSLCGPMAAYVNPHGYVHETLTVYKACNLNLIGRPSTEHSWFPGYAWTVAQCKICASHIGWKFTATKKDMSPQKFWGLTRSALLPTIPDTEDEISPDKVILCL
UniProt Q8RLA6, 21-275 limits assumed: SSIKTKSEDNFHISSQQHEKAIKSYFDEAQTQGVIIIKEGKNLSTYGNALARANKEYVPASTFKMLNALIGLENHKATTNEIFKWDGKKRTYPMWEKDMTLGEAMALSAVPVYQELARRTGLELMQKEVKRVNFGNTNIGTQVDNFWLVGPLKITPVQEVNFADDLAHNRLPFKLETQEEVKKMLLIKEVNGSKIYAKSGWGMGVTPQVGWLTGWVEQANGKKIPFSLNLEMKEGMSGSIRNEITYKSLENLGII
UniProt Q5U3Y7, whole entry: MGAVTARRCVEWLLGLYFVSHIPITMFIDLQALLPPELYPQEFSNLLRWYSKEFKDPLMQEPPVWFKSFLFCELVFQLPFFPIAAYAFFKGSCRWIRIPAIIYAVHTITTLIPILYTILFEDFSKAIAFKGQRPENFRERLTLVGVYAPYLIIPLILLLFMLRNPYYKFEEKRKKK
UniProt Q13148, whole entry: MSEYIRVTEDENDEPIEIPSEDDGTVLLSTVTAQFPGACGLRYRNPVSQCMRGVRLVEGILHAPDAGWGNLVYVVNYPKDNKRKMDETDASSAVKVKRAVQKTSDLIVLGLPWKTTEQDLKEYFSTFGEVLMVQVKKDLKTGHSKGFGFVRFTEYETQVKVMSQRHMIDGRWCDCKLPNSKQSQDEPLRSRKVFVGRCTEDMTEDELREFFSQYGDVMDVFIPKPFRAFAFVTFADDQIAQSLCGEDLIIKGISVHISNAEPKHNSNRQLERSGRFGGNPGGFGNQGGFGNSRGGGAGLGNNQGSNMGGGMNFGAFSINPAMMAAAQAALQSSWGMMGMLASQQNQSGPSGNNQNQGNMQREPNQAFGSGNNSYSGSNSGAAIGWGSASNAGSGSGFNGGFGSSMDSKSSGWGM
UniProt Q9WMX2, 2420-3010 S2701T limits assumed: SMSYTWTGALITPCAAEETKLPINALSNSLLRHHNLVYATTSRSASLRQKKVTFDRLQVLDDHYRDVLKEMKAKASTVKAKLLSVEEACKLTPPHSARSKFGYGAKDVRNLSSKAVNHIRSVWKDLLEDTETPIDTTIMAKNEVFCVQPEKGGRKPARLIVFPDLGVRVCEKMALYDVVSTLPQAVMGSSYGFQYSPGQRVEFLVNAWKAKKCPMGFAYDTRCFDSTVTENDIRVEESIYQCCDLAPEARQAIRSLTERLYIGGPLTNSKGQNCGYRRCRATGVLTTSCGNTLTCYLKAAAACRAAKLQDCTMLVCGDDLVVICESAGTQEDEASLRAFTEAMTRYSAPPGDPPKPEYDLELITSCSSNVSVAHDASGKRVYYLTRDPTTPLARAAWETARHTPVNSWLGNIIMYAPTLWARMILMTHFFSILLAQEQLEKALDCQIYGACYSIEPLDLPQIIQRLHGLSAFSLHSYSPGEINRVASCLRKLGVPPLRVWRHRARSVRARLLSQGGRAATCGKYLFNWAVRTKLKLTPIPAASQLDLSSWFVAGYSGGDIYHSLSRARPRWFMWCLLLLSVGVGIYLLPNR
UniProt Q16531, whole entry partner: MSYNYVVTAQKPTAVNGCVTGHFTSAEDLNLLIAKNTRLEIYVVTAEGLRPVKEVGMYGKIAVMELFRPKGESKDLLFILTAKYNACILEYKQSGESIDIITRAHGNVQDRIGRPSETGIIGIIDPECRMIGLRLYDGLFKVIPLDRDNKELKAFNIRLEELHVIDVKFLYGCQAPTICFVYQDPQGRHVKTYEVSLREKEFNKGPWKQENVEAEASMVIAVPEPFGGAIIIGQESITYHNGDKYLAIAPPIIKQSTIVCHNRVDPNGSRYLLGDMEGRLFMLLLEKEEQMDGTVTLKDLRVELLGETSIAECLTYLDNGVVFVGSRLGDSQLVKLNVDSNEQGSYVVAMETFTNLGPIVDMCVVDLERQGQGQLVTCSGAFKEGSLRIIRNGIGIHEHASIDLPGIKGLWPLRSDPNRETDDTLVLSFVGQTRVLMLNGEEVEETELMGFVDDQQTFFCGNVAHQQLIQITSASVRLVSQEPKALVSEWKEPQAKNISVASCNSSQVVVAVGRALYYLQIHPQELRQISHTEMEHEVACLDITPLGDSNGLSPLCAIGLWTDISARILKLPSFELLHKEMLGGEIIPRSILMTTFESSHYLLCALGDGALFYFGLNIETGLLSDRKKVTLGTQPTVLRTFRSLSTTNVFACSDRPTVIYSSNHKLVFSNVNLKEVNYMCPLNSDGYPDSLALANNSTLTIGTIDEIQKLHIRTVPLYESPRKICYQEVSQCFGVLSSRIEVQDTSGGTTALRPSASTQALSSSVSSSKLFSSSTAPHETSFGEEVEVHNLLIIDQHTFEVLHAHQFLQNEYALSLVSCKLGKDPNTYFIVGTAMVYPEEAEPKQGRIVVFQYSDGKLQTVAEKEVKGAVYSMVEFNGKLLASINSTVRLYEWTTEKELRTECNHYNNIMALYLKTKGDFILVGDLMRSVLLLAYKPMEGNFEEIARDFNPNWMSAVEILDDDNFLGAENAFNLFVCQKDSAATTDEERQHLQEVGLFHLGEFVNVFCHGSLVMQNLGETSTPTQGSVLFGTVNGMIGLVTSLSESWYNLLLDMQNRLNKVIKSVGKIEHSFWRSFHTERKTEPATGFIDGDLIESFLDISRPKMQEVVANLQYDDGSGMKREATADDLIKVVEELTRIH

CCCCC(c1ccc(-c2ccccc2)cc1)n1ccnc1 (centres unmarked) — Kd (cyp121; binding): 1900 ± 390 nM
O=C(NCc1cc(Br)cc(Br)c1OC(=O)c1ccccc1[N+](=O)[O-])c1ccccc1Cl — EC50 (lasR; reporter gene, agonist; Escherichia coli JLD271 lasI-lacZ reporter): 5.12 nM
C[C@@H]1CN(C)CCN1c1nc(-c2ccc(F)cc2)cs1 — Ki (SLC6A2 (Homo sapiens, UniProt P23975)): 3500 nM
COCOc1ccc(C(=O)OC2=C[C@@H](C(=O)OC)[C@]3(C)CC[C@H]4C(=O)O[C@H](c5ccoc5)C[C@]4(C)[C@H]3C2=O)cc1Br — EC50 (OPRM1 (Homo sapiens, UniProt P35372); agonist): 1300 ± 200 nM
c1ccc(-c2ccc3c(n2)sc2c(N4CCNCC4)ncnc23)cc1 — IC50 (Beta-glucuronidase (Streptococcus agalactiae serotype V, UniProt Q8E0N2); enzyme activity, inhibitor): 520 ± 90 nM
COc1ccc(-c2ccc(C(C)n3ccnc3)cc2)cc1 (centres unmarked) — Kd (cyp121; binding): 10900 ± 2000 nM
COc1ccc2c(c1)sc1nc(-c3ccc4c(c3)CN(C3CCC(=O)NC3=O)C4=O)c(NCc3ccccc3)n12 (centres unmarked) — DC50 (WEE1/CRBN (Homo sapiens, UniProt P30291+Q96SW2); degrader, HiBiT luciferase; Jurkat (HiBiT-tagged); 5 h): 133 nM and 140 nM
O=S(=O)(O)c1ccc2cc(S(=O)(=O)O)ccc2c1 — Ki (Beta-lactamase (blaOXA-33, Acinetobacter baumannii, UniProt Q8RLA6); enzyme activity, inhibitor; enzyme 0.2 nM, added: nitrocefin 30 µM): 150000 nM and > 100000 nM
O=C(NCc1cc(Br)cc(Br)c1OC(=O)c1ccccc1Cl)c1ccccc1Cl — EC50 (lasR; reporter gene, agonist; Escherichia coli JLD271 lasI-lacZ reporter): 7.99 nM
CCCCCCCCCCCCNC(=O)N[C@H](C(=O)N[C@H]1/C=C/CCNC(=O)/C=C/[C@H](C)NC1=O)C(C)C — Ki (PSMB6 (Homo sapiens, UniProt P28072); caspase-like activity, inhibitor, Proteasome-Glo; MM.1R; 24 h): 104 ± 46.6 nM
O[C@H](c1ccc(F)cc1)C(F)(F)CCN1CCC(O)(c2ccc(Cl)cc2)CC1 (racemic) — Ki (Tmem97 (Rattus norvegicus, UniProt Q5U3Y7)): 24.1 ± 2.8 nM
COc1c(Br)cc(Br)cc1CNC(=O)c1ccccc1[N+](=O)[O-] — EC50 (lasR; reporter gene, agonist; Escherichia coli JLD271 lasI-lacZ reporter): > 60 nM
Cc1nc2c[nH]c(/C=C/C=C/c3ccc(N(C)C)cc3)cn-2c1=O — Kd (TARDBP (Homo sapiens, UniProt Q13148); binding): 2300 nM
O=c1ccn([C@@H]2O[C@H](COP(=O)(O)OP(=O)(O)OP(=O)(O)O)[C@@H](O)[C@]2(F)Br)c(=O)[nH]1 — IC50 (Genome polyprotein, NS5B polymerase (Hepatitis C virus genotype 1b, UniProt Q9WMX2, S2701T); polymerase activity, inhibitor; genotype 1b S282T): 45000 nM

A few entries again:
COCOc1ccc(C(=O)OC2=C[C@@H](C(=O)OC)[C@]3(C)CC[C@H]4C(=O)O[C@H](c5ccoc5)C[C@]4(C)[C@H]3C2=O)cc1Br — EC50 (OPRM1 (Homo sapiens, UniProt P35372); agonist): 1300 ± 200 nM
c1ccc(-c2ccc3c(n2)sc2c(N4CCNCC4)ncnc23)cc1 — IC50 (Beta-glucuronidase (Streptococcus agalactiae serotype V, UniProt Q8E0N2); enzyme activity, inhibitor): 520 ± 90 nM
